# Assay results collected from several papers.
# Every numbered part comes from another study and shows a few of its results, in no order.

# Block 1
# Target: Centromere-binding protein 1, full length, His-tagged (CBF1, Saccharomyces cerevisiae, UniProt P17106, residues 1-351)
# Sequence of UniProt P17106 (whole entry, looked up): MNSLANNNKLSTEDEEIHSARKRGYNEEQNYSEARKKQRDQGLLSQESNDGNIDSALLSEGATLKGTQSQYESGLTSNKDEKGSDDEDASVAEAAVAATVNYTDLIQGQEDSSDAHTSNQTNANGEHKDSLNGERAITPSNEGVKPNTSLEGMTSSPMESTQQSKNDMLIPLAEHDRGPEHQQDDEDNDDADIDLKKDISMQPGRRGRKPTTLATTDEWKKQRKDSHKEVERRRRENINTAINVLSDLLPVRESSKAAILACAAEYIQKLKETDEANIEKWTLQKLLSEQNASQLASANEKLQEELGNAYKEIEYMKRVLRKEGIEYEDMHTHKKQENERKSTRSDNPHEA
# Method: competition protein-binding microarray
# Form: double-stranded DNA, one strand shown
# Medium: in vitro
# Tested at: 2 µM
# Notes: whole 60-bp probe, lowest competitor level
# Added: Pho4 competitor, 0.05 µM
# Direction: higher = stronger binding
# Constant ends, left off below: … GTCTTGATTCGCTTGACGCTGCTG
Oligonucleotide,fluorescence intensity
TATTGGATGAGTATCCACATGGCTTGAACGCAAATG,90.3 a.u.
TGTTTCACCTAAGCAAACGTGTGGACCACAACCAAA,76.6 a.u.
GCAGCGGCGGCCTTTCTCGTGATGGTGGCGCTCGGA,77.5 a.u.
AAAGCGGTAATTTGGTCAGTGGGTGCAGATATCTAT,81.7 a.u.
GTTTAGTTTTCCAATCACGATACTGTTTGGCCATAC,186 a.u.
CATTCTGTGAACCATCACGTGGACCAATTATATTAC,3090 a.u.
CAGATCTTATAAGGGTTCGTGATGGTCCTGAATCGA,68.9 a.u.
GCCCGGACACAGGGAATCGTGCGGAGCCGGGGATAA,54.5 a.u.
AGTTCATCGATGTAGCATGTGTACGCATTTCTAGAT,91.7 a.u.
TTACCTTGGCGCCATCACGTGGCAAAATGGAAGCAA,3310 a.u.
CGTCCTAGTGATTGTCTAGTGGGTGCCATGAGGAAG,82.2 a.u.
AAATTACTAAGTTGTCACCCAACTTACCCCGTATGA,70 a.u.
AAAGCGGTAATTTGATTCGTGGGTGCAGATATCTAT,75.7 a.u.
CTTCTGTAAATTTGACTCGTGGGTGGACGCGCCCCG,89.5 a.u.
AAATCTGTCAGCTTGCACACGCCTTCCGGGGATAGC,71.1 a.u.
CTTTCCCGATCTTGGGGTGTGGGTGTAGCACATTTG,57.4 a.u.
AAATTACTAAGTTGGCATGTGGGTGACGCCGTATGA,95.4 a.u.
TCCATTCTCTACGGCCACGCTGAAACACGAATCATC,88.6 a.u.
GGCGTAGACTTGAGAAACATGACAACCACCAGGGAC,76.9 a.u.

# Block 2
# Target: Prothrombin, mature alpha-thrombin (F2, Homo sapiens, UniProt P00734)
# Method: aptamer microarray, sandwich
# Form: DNA with 2'F-ANA
# Medium: in vitro
# Tested at: 200 nM
# Notes: whole 15-mer aptamer, many near background
# Added: Cy3 exosite-II aptamer, 400 nM
# Direction: higher = stronger binding
# Oligonucleotide: GGTTGGTGTGGTTGG
Modification,mean fluorescence intensity [a.u.]
2'F-ANA at 2 3 4 5 6 8 12 13 15,120
2'F-ANA at 1 3 4 9 10 11 12 13 15,67.9
2'F-ANA at 1 2 5 7 8 9 10 11 12 13 14 15,72.2
2'F-ANA at 1 4 6 7 8 12 14,57.7
2'F-ANA at 9 14 15,196
2'F-ANA at 1 2 4 7 9 10 12 13 14,52
2'F-ANA at 4 5 7 10 13 15,87.3
2'F-ANA at 3 5 6 8 11 13,136
2'F-ANA at 2 3 6 10 12,434
2'F-ANA at 2 4 5 6 7 8 14 15,46.9
2'F-ANA at 1 2 3 4 6 7 8 10 12 14 15,56
2'F-ANA at 1 3 4 8 10 13 14,50.5
2'F-ANA at 2 3 4 5 6 7 9 13 14 15,49.7
2'F-ANA at 1 2 4 5 8 10 11 12 14 15,49.7
2'F-ANA at 5 8 9 10 12 14 15,46.8
2'F-ANA at 3 4 5 6 7 8 10 11 13,47.6
2'F-ANA at 1 4 6 7 12 15,259
2'F-ANA at 3 7 12 13,1550
2'F-ANA at 1 4 5 6 8 10 13 14,45.6
2'F-ANA at 2 7 8 11 12,727
2'F-ANA at 1 3 5 7 10 13,42.1
2'F-ANA at 1 2 3 5 6 7 8 9 10 11 13 14 15,55.2
2'F-ANA at 1 2 3 4 5 6 9 10 12 13 14 15,67.4
2'F-ANA at 1 2 3 4 7 10 13,53.5
2'F-ANA at 1 6 10 12 13,82.1

# Block 3
# Target: RING finger protein unkempt homolog, zinc fingers 1-6, GST-SBP tag (UNK, Homo sapiens, UniProt Q9C0B0, residues 30-357)
# Method: RNA Bind-n-Seq
# Form: RNA
# Medium: in vitro
# Tested at: not given
# Notes: RNA with constant flanks, ends assumed
# Reference: input RNA pool
# Direction: higher = stronger binding
# Constant ends, left off below: GGGAGUUCUACAGUCCGACGAUC … CAACAGAGGAUUGAGCAUCA
# Target sequence (chain): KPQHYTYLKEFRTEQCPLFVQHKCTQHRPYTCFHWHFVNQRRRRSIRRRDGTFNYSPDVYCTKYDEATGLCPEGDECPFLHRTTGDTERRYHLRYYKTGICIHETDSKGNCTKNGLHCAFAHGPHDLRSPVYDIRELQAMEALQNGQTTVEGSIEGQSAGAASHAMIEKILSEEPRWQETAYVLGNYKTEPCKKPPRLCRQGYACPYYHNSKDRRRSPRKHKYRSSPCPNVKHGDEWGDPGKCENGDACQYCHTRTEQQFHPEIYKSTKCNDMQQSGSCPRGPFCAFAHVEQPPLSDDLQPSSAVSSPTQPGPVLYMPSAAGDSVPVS
Oligonucleotide,bound/input enrichment [ratio]
GAACCACUUGAAGAAAAUUGCGCUAAAGCCCUGACUUUAAGGAUACAUGAUUCUUUGAAUAACCGCCUUCCAAUUGGCCUUGUGCCUACUAAUUCAACAAACACUGUCAUGGACCAAAAA,0.235
GGAAGGCGCUGUUUGAAGCUUGUGGCUCUUUGAAGUCUGAAAGACAUCGGCAGAGGACCCUUCCGACGGCACAACUGUUACUCUAGGGAGUUGAUUUUUUUUUCUUAAGAGAUUUAAAAA,0.0883
GGUGCAUGGAACAUGAAUUCUUAACAGAGAUUUCAGAUUUCCUUGUCUUUGCUAAAUACACCGUAUGAAACCCCUUAAUUUUUCUUGUUUAAUGAAUGGAGAACACAUGAGAAAAUCAGA,0.211
GUGUCCACCUCAGCAGGGGGAAUAAUGACUGCACCAGCCAUUGACAUAUUUUCUACCCCCCGUUCUUCUAACAGCACAUCUAAGCUGCCAAAUGACCUGCUUGACUUGCAGCAGCCAACC,0.202
CACAGAUCCUCCCUGUCAUGCCACAUUUCACUGAUUGGAAUGUGGAAAUGGAAAAGGAAUUCCGGAUGUGCAUUUUCACCUGAGGUUUCCCUGCAUCCCUGCAGUGCCAAAGCCCCACCU,0.108
UACAGCUUGCCUUUUUAAUGUUAGUCACAAUGUUUUUGUGGUUUGAAGUUUAGUUUAAUGUCCGUGCAGUGACGGGAAAUACACAUUAUGCUAAUGUUGAUGACAGAAUUUAUUUGGUUG,0.338
CAUCUCGCCCACGUGGUGUUAAGCGUCGCUGGAGACUUAGUCGCAUUGUCUUCCGCCACUCCGCUGACCACGGGCUACUUUCUGGAGUCCAGCGAGCGAUAUGGUAAAACCAUUUCAGAA,0.0732
GAUACAUCCAACAGAGUAACAGUCAAGAGCCUUGAUUAUAGUAGGAAGCUGAAAAAUGUAUCCGUUACCAUUUACUGGCUGGGAAAAGCAGCAAACAGCUGCACAUCCUACAGCGGAACG,0.263
CUGCAGAGCAAACCACCUCCUGGGAUUGGUGAAAGUUUGGGUGUAAAUGUGACUGAGAAAACCGAAAUUCAUCUUGAAGAACCAGCCCCUUCAGAUAAACAGCUCUCUAAUGAUGCAGCG,0.169
UGUGAAACCCAGAAAUGGACUGUGAAUGGACAGCUGAGGGUUGGAUUUUUUACCACCAAACCCGUUCCUUCAGGCUCAGAAUUAACUUUUGACUACCAGUUCCAAAGAUAUGGCAAAGAA,0.198
CAGAACUUACGGCCAUGCUGAAGUUGCAGUUUCAUUCAGAUGCUACCUAAAGUUUAUGUUACCCGAGUAAAAAGAUCUCACAGUGAGUUGGUUUGAUAUUUAUAUUGUGGUUCAUGUUUG,0.289

# Block 4
# Target: RNA binding protein fox-1 homolog 2, RRM domain, GST-SBP tag (RBFOX2, Homo sapiens, UniProt O43251-10, residues 100-194)
# Method: RNA Bind-n-Seq
# Form: RNA
# Medium: in vitro
# Tested at: 365 nM
# Notes: natural RNA segment, single round, ends assumed
# Reference: no-protein control
# Direction: higher = stronger binding
# Constant ends, left off below: GGGAGUUCUACAGUCCGACGAUC … UGGAAUUCUCGGGUGCCAA
# Residues (chain): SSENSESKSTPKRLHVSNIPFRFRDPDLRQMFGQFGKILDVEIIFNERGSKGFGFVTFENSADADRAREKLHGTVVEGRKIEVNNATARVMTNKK
Oligonucleotide,RBNS enrichment (R)
ACUUUGCACUUUGAAUCCAGAGGAAGAUGAAUUUUUAAAAUCUCCAUCAAACGUGCCUUAAAGCUAAAGCAUUUUGACAGGAGUAUUUAAACUUAGUCCAGGAUAUUUUC,0.383
UGUAGUAUUUUCUUAUAGUUAUAACUCAAAAAUAUCAAGCAGACAGAGAAUUUAGGCAGUGCAAAGGAGUAUUCUUGUGUGUUUGUGUUGAGUCAUUCUGUCCAUUCCUC,0.758
UGAUGAGUGAAUUCAGUUCCCUACCAACUAAUGCGCAGAAUUGAAGAAUCCCAUCCUGCACACAUUGGUUGGUGCCCUGGGUGGAAUAGCAACGACACCAACUGAUAAAA,0.806
GACCCAGCUUGUCUCUCCUUGUUUCUUCCCACUGCACUGUGGUGCUUCAGUGGCCACCAGCCUCGUCACAUACACCAGCAUCUUUCUGUACCUCCUCCCUUUGGUGACCU,0.895
GUUAUGUACCAUAAUGCUAAAUAAAACUGUGGCACUUUUCACCAUAAUUUAAUUUAGUGGAAAAAGAAGACAAUGCUUUCCAUAUUGUGAUAAGGUAACAUGGGGUUUUU,0.365
CUUUCAAUCUGAAAAUUAAAGACAUUGGAGAGAAAGGCUAACCACUUAAUGGUGCUUAAAAAUCGGGGCACUUAAAAUAAGUUUACGGCCAAAGGUGCAGCAGUGCUUAU,0.309
CCUUCGUCAUCUGUGGAUCCAUCCAGAACAGCGGUAUCUGAAGCCCAGGCCAUACUCCCUGCCUCCUUUCUUCUGCCUACCAGAGGCUCCAGAGUUGAGCUUGUCCUUAU,0.489
CAUUGUUGGAGAGGGUGGGGGAAAGGUUCAAACAUUGUCAAUUUUUCUGACUUUUUAAAUCAUCAUCAUUAUUUUUAAUUAAAAAAAAAUGCCUGUAUGCCUUUUUCUGG,0.535
AAGAAUCUAGGGAGUGGCCAAACUAAAUAUAAUUUCUUUAAAAAAGAAAGAAAAAGGAAAAAUCCAAAAUAUCUCAGUAUCAUCUGUCUGAAGCAUUGUGUGUUCUCAUU,0.505
AUGAGUACCAACAUUGAAAGGCAUUCCUGUGACCGUCAGACCAUAGUCUGCACACCUACUCUGCCUGUGGAAGCAGCACCUGGGCCUCCUGCCUGCUUUCCUCAAGACGA,1.14
UUCUGGGUUGAAUUUUUUAAAAAUCAGGUACCACUUGAUUUCAUAUGGGAAAUUGAAGCAGGAAAUAUUGAGGGCUUCUUGAUCACAGAAAACUCAGAAGAGAUAGUAAU,0.323
AAAAUAUACUGAAAGCCUGUUUUCAUUUGAUUCCAAUGUUUCUUCCAAAGAAUUCUGUAUAAACAUAUGCCAAUUCCCUAUGAUGGUCUAGAGUUAGGAAUGAGUGUUUA,2.08

# Block 5
# Target: Histone acetyltransferase KAT6A, winged helix 2, GST fusion (KAT6A, Homo sapiens, UniProt Q92794, residues 85-181)
# Method: protein binding microarray
# Form: double-stranded DNA, one strand shown
# Medium: in vitro
# Tested at: not given
# Notes: 8-mer, flanks averaged, mean of 2 arrays, mostly near background
# Reference: not given
# Direction: higher = stronger binding
# Residues (chain): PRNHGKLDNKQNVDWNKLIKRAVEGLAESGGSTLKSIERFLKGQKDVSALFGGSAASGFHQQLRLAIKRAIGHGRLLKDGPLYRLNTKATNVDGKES
Oligonucleotide,E-score
CTACTCTC,-0.0755
TCCCATAA,-0.00223
CCAGCACG,-0.0217
TGTTCAAA,-0.0284
CACAATCA,-0.0105
AGCTGCGG,0.159
CCTCGGCG,0.227
GCGCCACC,0.0861
CCAGCTCC,-0.0391
GACCAGGC,-0.0319
ACGGGTCC,0.00385
CAATAGAG,-0.105
CGCCAATC,0.025
CCAGACAG,0.0392
CACCTCAC,0.0338
ACCCCTCT,-0.262
ATGAGCTC,0.0378
AACAAGTA,-0.148
TAATATCA,0.144
AGTGAGGA,-0.0346
GCCAGTAA,-0.0877
CTATAAGA,-0.121
CTATATTA,0.0548
GCAGTTAA,0.0205
GATGTGAC,-0.0908

# Some of these lines once more (block 5):
Oligonucleotide,E-score
AACAAGTA,-0.148
CTACTCTC,-0.0755
CACCTCAC,0.0338
CAATAGAG,-0.105
CACAATCA,-0.0105
CTATATTA,0.0548
AGCTGCGG,0.159
GCCAGTAA,-0.0877
GCAGTTAA,0.0205
CCAGCTCC,-0.0391
CCAGCACG,-0.0217
